# Assay results collected from several papers.
# Each line is one published result; not all experiments were run side by side. Values joined by “and” are separate records of one study, mostly repeats; a detail may differ. ± gives the spread as reported.
Structure (SMILES),test,system,setting,scale,quantity,result
CC(CCC(=O)NCC(=O)O)C1CCC2C3CCC4CC(OC5OC(C(=O)O)C(O)C(O)C5O)CCC4(C)C3CC(O)C12C (stereo not shown),,"men, T/C genotype, plasma","dose not given, geometric mean",,glucuronide to parent ratio,1.03
COc1cnc2cccc(N3CCc4c(cc(Cn5ccnc5)cc4-c4cn(C)nc4C(F)(F)F)C3=O)c2c1,,CD-1 mice,"intraperitoneal, 50 mg/kg once daily, day 3",,body weight,28.8 ± 1 g
CC[C@H](C)[C@@H]1NC(=O)[C@@H](NC(=O)[C@H](CCCCN)NC(=O)[C@H](CC(C)C)NC(=O)[C@H](CC(C)C)NC(=O)CNC(C)=O)CN(C)C(=O)c2ccc(=O)n(c2)CC[C@@H](C(=O)N[C@@H](CC(C)C)C(N)=O)NC(=O)[C@H]([C@@H](C)O)NC(=O)[C@H](CCCCN)NC1=O,"CD, BeStSel",50% trifluoroethanol,66 µM,,helicity,76.1%
O=C1NC2(CC2)COc2ncc(F)cc2[C@H]2COCCN2c2ccn3ncc1c3n2,,"Sprague-Dawley rat, male, serum","oral, 2.5 mg/kg/day, end of treatment, 4-week repeated-dose toxicity",,albumin/globulin ratio,1.64 ± 0.17
CN1CCCCC1C(=O)NC(Cc1ccc(-c2ccccc2)cc1)B(O)O (stereo not shown),,Caco-2,,,Papp B→A,24 ×10⁻⁶ cm/s
CC(C(=O)O)n1nc(Cn2cc3cc(OCC[18F])c(Cl)cc3n2)c2ccccc2c1=O (racemic),microPET,"cynomolgus monkey, brain","post injection, 0-120 min",,SUV,< 0.15
C=Cc1c(C)c2cc3nc(c(CC(=O)[O-])c4[n-]c(cc5nc(cc1[n-]2)C(C)=C5CC)c(C)c4C(=O)[O-])C(CCC(=O)[O-])C3C.[Cu+2].[Na+].[Na+].[Na+] (stereo not shown),,"Wistar rat, male","oral, 250 mg/kg daily, 28 days",,serum ALT,54.3 ± 5.54 U/L
CSCC[C@H](N)C(=O)N[C@@H](C)C(=O)N[C@@H](Cc1c[nH]c2ccccc12)C(=O)N[C@@H](Cc1c[nH]cn1)C(=O)N[C@@H](CC(=O)O)C(=O)N[C@@H](CC(=O)O)C(=O)N[C@@H](CCC(=O)O)C(=O)N[C@@H](CCC(=O)O)C(=O)N[C@@H](Cc1ccccc1)C(=O)N[C@@H](C)C(=O)N[C@@H](CCCNC(=N)N)C(=O)N[C@@H](CCCNC(=N)N)C(=O)N[C@@H](CCCNC(=N)N)C(=O)N[C@@H](CCCNC(=N)N)C(=O)NCCCCCC(=O)NCCCCC(NC(=O)CCCCCNC(=O)[C@H](CCCNC(=N)N)NC(=O)[C@H](CCCNC(=N)N)NC(=O)[C@H](CCCNC(=N)N)NC(=O)[C@H](CCCNC(=N)N)NC(=O)[C@H](C)NC(=O)[C@H](Cc1ccccc1)NC(=O)[C@H](CCC(=O)O)NC(=O)[C@H](CCC(=O)O)NC(=O)[C@H](CC(=O)O)NC(=O)[C@H](CC(=O)O)NC(=O)[C@H](Cc1c[nH]cn1)NC(=O)[C@H](Cc1c[nH]c2ccccc12)NC(=O)[C@H](C)NC(=O)[C@@H](N)CCSC)C(=O)NCCCCC(NC(=O)C(CCCCNC(=O)CCCCCNC(=O)[C@H](CCCNC(=N)N)NC(=O)[C@H](CCCNC(=N)N)NC(=O)[C@H](CCCNC(=N)N)NC(=O)[C@H](CCCNC(=N)N)NC(=O)[C@H](C)NC(=O)[C@H](Cc1ccccc1)NC(=O)[C@H](CCC(=O)O)NC(=O)[C@H](CCC(=O)O)NC(=O)[C@H](CC(=O)O)NC(=O)[C@H](CC(=O)O)NC(=O)[C@H](Cc1c[nH]cn1)NC(=O)[C@H](Cc1c[nH]c2ccccc12)NC(=O)[C@H](C)NC(=O)[C@@H](N)CCSC)NC(=O)CCCCCNC(=O)[C@H](CCCNC(=N)N)NC(=O)[C@H](CCCNC(=N)N)NC(=O)[C@H](CCCNC(=N)N)NC(=O)[C@H](CCCNC(=N)N)NC(=O)[C@H](C)NC(=O)[C@H](Cc1ccccc1)NC(=O)[C@H](CCC(=O)O)NC(=O)[C@H](CCC(=O)O)NC(=O)[C@H](CC(=O)O)NC(=O)[C@H](CC(=O)O)NC(=O)[C@H](Cc1c[nH]cn1)NC(=O)[C@H](Cc1c[nH]c2ccccc12)NC(=O)[C@H](C)NC(=O)[C@@H](N)CCSC)C(N)=O (stereo partly shown),,"C57BL/6 mouse female, spleen","dose not given, 6 h",relative to: total,tissue distribution,0.67% and 0.61% and 1.11%
CN[C@H](CC(C)C)C(=O)N[C@H]1C(=O)N[C@@H](CC(N)=O)C(=O)N[C@H]2C(=N)N[C@H]3C(=O)N[C@H](C(=O)N[C@H](C(=O)NCCCNC(=N)N)c4cc(O)cc(O)c4-c4cc3ccc4O)[C@H](O)c3ccc(c(Cl)c3)Oc3cc2cc(c3O[C@@H]2O[C@H](CO)[C@@H](O)[C@H](O)[C@H]2O[C@H]2C[C@](C)(NCc3ccc(-c4ccc(Cl)cc4)cc3)[C@H](O)[C@H](C)O2)Oc2ccc(cc2Cl)[C@H]1O,,mouse,"intravenous, 25 mg/kg",,AUC,316 µM·h
CN(C(=O)c1ccn2ncc(-c3ccc(C(N)=O)cc3)c2c1)c1ccc(C#N)cn1,,male Wistar rat,"oral, dose not given, 14 days daily, solid dispersion",,NOEL,30 mg/kg/day
CSCC[C@H](NC(=O)CNC(=O)[C@H](CCCCN)NC(=O)[C@H](CC(C)C)NC(=O)[C@@H]1CCCN1C(=O)[C@H](CO)NC(=O)[C@H](Cc1c[nH]cn1)NC(=O)[C@H](Cc1c[nH]c2ccccc12)NC(=O)[C@H](CCCNC(=N)N)NC(=O)[C@H](CC(C)C)NC(=O)[C@H](CCCNC(=N)N)NC(=O)[C@H](Cc1c[nH]c2ccccc12)NC(=O)[C@H](CS)NC(=O)CCCCCNC(=O)CN1CCN(CC(=O)O)CCN(CC(=O)O)CCN(CC(=O)O)CC1)C(=O)O [copper-64 labelled],ex vivo biodistribution,"C57BL/6J mice bearing B16-F10 tumours, lung","intravenous, 1.85 MBq, 18 h",,tissue uptake,5.14 %ID/g
CCCCC[C@@H]1NC(=O)[C@@H](C)N(C)C(=O)[C@H](CCCCC)NC(=O)[C@@H](C)N(C)C(=O)[C@H](CCCCC)N(C)C(=O)[C@@H](C)N(C)C(=O)[C@H](CCCCC)NC(=O)[C@@H](C)N(C)C1=O,PAMPA,,"500 µM, pH 7.4",,log Papp,2.34 ×10⁻⁶ cm/s
CN1Cc2cc(Cl)ccc2-n2c(nnc2C2CCN(c3cccc(F)n3)CC2)C1,,"male Sprague-Dawley rat, plasma","intravenous, 0.03 mg/kg, 30 min",,concentration,4.37 ng/mL
CC(C)[C@@H]1NC(=O)CNC(=O)[C@H](CC(N)=O)NC(=O)[C@H](CCCNC(=N)N)NC(=O)[C@H](Cc2ccc(O)cc2)NC(=O)[C@H](C(C)C)NC(=O)[C@@H](NC(=O)[C@@H](NC(=O)[C@H](CC(N)=O)NC(=O)[C@H](Cc2c[nH]c3ccccc23)NC(=O)[C@H](C)NC(=O)[C@H](Cc2ccccc2)NC(=O)CNC(=O)[C@H](CCCCN)NC(=O)[C@H](Cc2ccccc2)NC(=O)[C@H](Cc2ccccc2)NC(=O)[C@H](CCCCN)NC(=O)OCC2c3ccccc3-c3ccccc32)C(C)C)CSSC[C@@H](C(=O)N[C@@H](Cc2c[nH]cn2)C(=O)N[C@@H](CCCNC(=N)N)C(=O)N[C@@H](CCCNC(=N)N)C(=O)N[C@@H](C)C(=O)N[C@@H](CC(N)=O)C(N)=O)NC(=O)[C@H](C(C)C)NC(=O)[C@H](CCCNC(=N)N)NC1=O,,"ICR mice, blood","intraductal mammary, 5 mg/kg, day 5",,plateletcrit,0.03%
N#[11C]c1ccc(-c2csc(NN=C3CCCC3)n2)cc1,,"C57BL/6 mouse, male","intravenous, 3 MBq, 15 min",,uptake in adrenal gland,6.57 ± 1.35 %ID/g
C[C@H](O)[C@@H](NC(=O)[C@H]1CCCN1C(=O)[C@@H](CCCCN)NC(=O)[C@@H](CO)NC(=O)[C@@H](Cc1ccc(O)cc1)NC(=O)[C@@H](CC(N)=O)NC(=O)CCOCCOCCOCCNC(=O)CN1CCN(CC(=O)O)CCN(CC(=O)O)CCN(CC(=O)O)CC1)C(=O)N[C@H](CC(=O)O)C(=O)N[C@H](CCCNC(=N)N)C(=O)N[C@H](CCC(N)=O)C(=O)N[C@H](Cc1ccc(O)cc1)C(=O)N[C@H](Cc1c[nH]cn1)C(=O)N[C@H](Cc1ccccc1)C(N)=O [copper-64 labelled],,"C57BL/6J mice, liver","intravenous, 1.85 MBq, 1 h, radiolabelled",,tissue uptake,1.29 ± 0.11 %ID/g
CC(C)[C@H](NC(=O)[C@@H](NC(=O)[C@H](CCCNC(=N)N)NC(=O)[C@H](CCCNC(=N)N)NC(=O)[C@H](CCCNC(=N)N)NC(=O)[C@H](CCC(N)=O)NC(=O)[C@H](CCCNC(=N)N)NC(=O)[C@H](CCCNC(=N)N)NC(=O)[C@H](CCCCN)NC(=O)[C@H](CCCCN)NC(=O)[C@H](CCCNC(=N)N)NC(=O)CN)[C@@H](C)O)C(=O)N[C@H](C(=O)N[C@@H](CO)C(=O)N1CCC[C@H]1C(=O)O)[C@@H](C)O,,"ICR mice, male, stomach","intranasal, 10 mg/kg daily, 4 weeks",,organ weight,0.38 ± 0.04 g
C=CC(=O)Nc1cccc(Cn2ncc3cnc(Nc4cnn(CCOC)c4)nc32)c1,,female Sprague-Dawley rat,"oral, 180 mg/kg/day, day 28, 28-day subacute toxicity",,serum HDL,0.58 ± 0.13 mM
CC[C@H](C)[C@H](NC(=O)[C@H](CCCCN)NC(=O)CNC(=O)[C@H](CC(C)C)NC(=O)[C@H](Cc1ccccc1)NC(=O)[C@H](CCCCN)NC(=O)[C@H](CO)NC(=O)[C@H](Cc1ccccc1)NC(=O)[C@H](Cc1c[nH]c2ccccc12)NC(=O)[C@H](CCC(N)=O)NC(=O)[C@@H](NC(=O)[C@H](Cc1ccccc1)NC(=O)CCCCCNC(=O)CN1CCN(CC(=O)O)CCN(CC(=O)O)CCN(CC(=O)O)CC1)C(C)C)C(=O)N[C@@H](CCC(=O)O)C(=O)N1CCC[C@H]1C(=O)N[C@@H](CC(=O)O)C(=O)N[C@H](C(=O)N[C@@H](CO)C(=O)N[C@@H](CCC(N)=O)C(=O)N[C@H](C(=O)N[C@@H](CCC(N)=O)C(=O)N[C@@H](CC(=O)O)C(=O)N1CCC[C@H]1C(=O)N[C@@H](CC(N)=O)C(=O)N[C@@H](CC(=O)O)C(=O)N[C@@H](CCC(N)=O)C(=O)N[C@@H](Cc1ccc(O)cc1)C(=O)N[C@@H](CCC(=O)O)C(=O)N1CCC[C@H]1C(=O)N[C@@H](Cc1ccccc1)C(=O)O)C(C)C)C(C)C [copper-64 labelled],,"C57BL/6 mice, male, naive, skeletal muscle",4 h,,tissue uptake,0.66 ± 0.07 %ID/g
